Measurements gathered from unrelated publications.
± marks the error that the study gave.
Cell line: A2780

`CC1(C)OB(c2ccc(COC(=O)N(Cc3cccc(CN4CCCCC4)c3)[c-]3cccc3)cc2)OC1(C)C.[Fe+2].c1cc[cH-]c1` gave an IC50 of 7 ± 2 µM (viability, MTT; 96 h).
`CCN(C(=O)c1cc(F)ccc1Oc1nncnc1N1CCC2(C1)CN([C@H](CCCN(C)CCOC)C(C)C)C2)C(C)C` gave a GI50 of > 10 µM (cell growth or viability; 72 h).
For `CC1(C)OB(c2ccc(COC(=O)N[c-]3cccc3)cc2)OC1(C)C.[Fe+2].c1cc[cH-]c1`, the mRNA level was 229 ± 51.4 (qPCR, item: CHOP; 20 µM, 24 h, unit not given; baseline: untreated).
For `CCOc1cncc(-c2ccc(NC(=O)C3(c4ccnc(NS(=O)(=O)C5CC5)n4)CCOCC3)nc2)n1`, the IC50 was 0.116 µM (cell proliferation, CellTiter-Glo; 72 h).
`C[C@@H]1CC[C@@H]([C@](O)(CNCc2cccc(F)c2)COCc2ccccc2)[C@H](OCc2ccccc2)C1` has an IC50 of 1.41 µM (cell growth or viability, MTT; 72 h).
For `CC(C)(C)c1nc(-c2cccc(NS(=O)(=O)c3c(F)cccc3F)c2F)c(-c2ccnc(N)n2)s1.Cc1[nH]c2ccccc2c1CCNCc1ccc(/C=C/C(=O)NO)cc1`, “early apoptotic cells” read 16.7 ± 3.3% (annexin V/PI flow cytometry; concentration not given, 48 h; baseline: untreated).
`C[C@@H]1CC[C@@H]([C@@](O)(CNCc2ccc(F)cc2)COCc2ccc(F)cc2)[C@H](OCc2ccc(F)cc2)C1` has an inhibition of 95.7% (cell growth or viability, MTT; 30 µM, 72 h).
For `CC(C)c1ccc(N(C)c2ccc3c(c2)OCC[C@H]3CNc2cnccc2C(=O)O)cc1`, the IC50 was 0.00214 µM (cell growth or viability, ATP luminescence; 7 days).
For `COc1cccc(CNC[C@@](O)(COCc2ccccc2)[C@@H]2CC[C@@H](C)C[C@H]2OCc2ccccc2)c1`, the IC50 was 1.37 µM (cell growth or viability, MTT; 72 h).
For `CNS(=O)(=O)Nc1nccc(Cc2c(C)c3ccc(Oc4ncccc4F)cc3oc2=O)c1F`, the IC50 was > 1 µM (cell viability; 7 days).

For quick reference, copied from above:
For `CC1(C)OB(c2ccc(COC(=O)N[c-]3cccc3)cc2)OC1(C)C.[Fe+2].c1cc[cH-]c1`, the mRNA level was 229 ± 51.4 (qPCR, item: CHOP; 20 µM, 24 h, unit not given; baseline: untreated).
